Published values gathered from unrelated publications.
Protocols differ between the studies behind these lines. “And” joins repeats or separate records; there may be more than shown. Numbers after ± are the reported error.
LGALS9 N-terminal CRD: Galectin-9, N-terminal CRD (LGALS9, Homo sapiens, UniProt O00182)
Proline--tRNA ligase: Proline--tRNA ligase (Plasmodium falciparum, UniProt Q8I5R7)
BPTF bromodomain: Nucleosome-remodeling factor subunit BPTF, bromodomain (BPTF, Homo sapiens, UniProt Q12830)

SMILES | target | test | system | conditions | Kd
CCCN(CC(=O)N(CCC)CC(=O)N(CCC)CC(=O)N(CCC)CC(=O)N(CC(=O)N(CCC)CC(=O)N(CCC)CC(=O)N(CCC)CC(=O)N(CCC)CC(=O)N(CC(N)=O)Cc1cn(CCCNC(=O)CCCOc2cccc(-c3nc4ccc(-c5nc6ccc(N7CCN(C)CC7)cc6[nH]5)cc4[nH]3)c2)nn1)Cc1cn(CCCNC(=O)CCCOc2cccc(-c3nc4ccc(-c5nc6ccc(N7CCN(C)CC7)cc6[nH]5)cc4[nH]3)c2)nn1)C(=O)CNCc1cn(CCCNC(=O)CCCOc2cccc(-c3nc4ccc(-c5nc6ccc(N7CCN(C)CC7)cc6[nH]5)cc4[nH]3)c2)nn1 | r(CUG)109 RNA hairpin | binding, fluorescence |  |  | 0.065 ± 0.008 µM
CN(C)CCNC(=O)c1cccc2c(NCCCCc3c(N)nc(N)nc3N)c3ccccc3nc12 | (CCUG)6 RNA | binding, ITC |  | 25 °C, binding site 1 | 5.2 ± 0.6 µM
CC#Cc1cc2c3c(c1)O[C@H](CO)[C@H](O)[C@@H]3OC2 | LGALS9 N-terminal CRD | binding, competitive fluorescence polarization |  | 20 °C, galectin-9 N-terminal domain 1.0 µM | > 2000 µM
O=C(O)C1Oc2cc(F)ccc2N(Cc2ccccc2)C1=O (stereo not drawn) | Dihydroxy-acid dehydratase, chloroplastic (DHAD, Arabidopsis thaliana, UniProt Q9LIR4) | microscale thermophoresis |  |  | 1360 µM
Cc1cc(N2CCC(CO)(C3CC3)C2=O)cc(C(=O)NCc2cc(F)cc(-c3cnn(C)c3)c2)n1 (stereo not drawn) | Proline--tRNA ligase | binding, MST |  |  | 0.222 µM
C[C@H](NC(=O)[C@H](C)NC(=O)[C@H](Cc1ccc(O)cc1)NS(=O)(=O)c1cccc2c(N(C)C)cccc12)C(=O)N[C@@H](CCCNC(=N)N)C(=O)N[C@@H](CCCCN)C(=O)N[C@@H](Cc1ccccc1)C(=O)N[C@@H](C)C(=O)N[C@@H](CCCCN)C(=O)O | Rho guanine nucleotide exchange factor TIAM1, PDZ domain (TIAM1, Homo sapiens, UniProt Q13009) | fluorescence anisotropy |  | 25 °C, together with: dansylated peptide 1 µM | > 250 µM
CN(C)c1ccc(-c2cc3cc(I)ccc3o2)cn1 | Islet amyloid polypeptide, aggregated (IAPP, Homo sapiens, UniProt P10997) | binding, saturation radioligand binding |  | 3 h, room temperature | 0.00831 µM
OC[C@H]1Oc2c(I)c(I)cc3c2[C@@H](OC3)[C@H]1O | Galectin-9 (LGALS9, Homo sapiens, UniProt O00182) | cell-free assay, FP |  |  | > 1000 µM
CC1CC(C)(C)N(C(=O)CN2C(=O)c3ccccc3C2=O)c2ccc(C(=O)N3CCN(C(=O)CCC4=[N+]5C(=Cc6ccc(-c7ccc[nH]7)n6[B-]5(F)F)C=C4)CC3)cc21 (stereo not drawn) | Mucolipin-1 (MCOLN1, Homo sapiens, UniProt Q9GZU1) | BRET saturation binding | HEK293T expressing target |  | 0.8 ± 0.3 µM
CC1=C(/C=C/C=C\C=C\C(C)=C\C=O)C(C)(C)CCC1 | Rhodopsin, apoprotein (opsin) (RHO, Bos taurus, UniProt P02699) | Trp fluorescence quenching | opsin membranes | titration up to 1 µM | 0.0091 µM
CC[C@H](C)[C@H](NC(=O)[C@H](CCCCN)NC(=O)[C@H](CCCCN)NC(=O)[C@@H](NC(=O)[C@H](CCC(=O)O)NC(=O)[C@H](CCC(=O)O)NC(=O)[C@H](CCC(=O)O)NC(=O)[C@H](CO)NC(=O)[C@H](CC(C)C)NC(=O)[C@H](CC(=O)O)NC(=O)[C@H](CC(C)C)NC(=O)CNC(=O)[C@H](C)NC(=O)[C@H](CC(C)C)NC(=O)[C@H](CO)NC(=O)CNC(=O)CNC(=O)CNC(=O)CCCC[C@@H]1SC[C@@H]2NC(=O)N[C@@H]21)C(C)C)C(=O)N[C@@H](CC(C)C)C(=O)N[C@@H](CC(=O)O)C(=O)N[C@@H](CCC(=O)O)C(=O)N[C@H](C(=O)N[C@H](C(=O)N[C@@H](CCCCN)C(=O)N[C@@H](CC(=O)O)C(=O)O)C(C)C)[C@@H](C)CC | Fab B11 antibody (human) | binding, biolayer interferometry |  | together with: biotinylated peptide on tips | 0.031 ± 0.001 µM
CCc1cc2c3c(c1CC)O[C@H](CO)[C@H](O)[C@@H]3OC2 | LGALS9 N-terminal CRD | binding, competitive fluorescence polarization |  | 20 °C, galectin-9 N-terminal domain 1.0 µM | > 6000 µM
O=C(Cc1cccc(C(F)(F)F)c1)Nc1cc(Oc2c(Cl)cc3nc(NC(=O)C4CC4)sc3c2Cl)ccc1F | RIPK3 (Homo sapiens, UniProt Q9Y572) | binding, competition with immobilised ligand |  |  | > 5 µM
CCc1noc(-c2cccc(NC(=O)c3cccc(OC)c3)c2)n1 | Cystathionine gamma-synthase 1, chloroplastic (CGS1, Arabidopsis thaliana, UniProt P55217) | binding, microscale thermophoresis |  |  | 5.04 µM
CC(C)C[C@H](NC(=O)[C@@H]1CSSC[C@H](NC(=O)[C@@H]2CCCN2C(=O)[C@@H](N)CC(C)C)C(=O)N[C@@H](CC(=O)O)C(=O)N[C@@H](Cc2ccc(O)cc2)C(=O)N[C@@H](Cc2ccc(O)cc2)C(=O)NCC(=O)N[C@@H]([C@@H](C)O)C(=O)N1)C(=O)N[C@@H](CC(=O)O)C(N)=O | FGA/FGB/FGG (Homo sapiens, UniProt P02671+P02675+P02679) | isothermal titration calorimetry |  |  | > 20 µM
N=C(N)NCCC[C@@H]1NC(=O)[C@H](Cc2ccc3ccccc3c2)NC(=O)[C@@H](Cc2ccccc2)NC(=O)[C@H](Cc2ccccc2)NC(=O)[C@H](CCC(=O)NCCOCCOCC(=O)N[C@@H](CCCCNC(=S)Nc2ccc3c(c2)C(=O)OC32c3ccc(O)cc3Oc3cc(O)ccc32)C(N)=O)NC(=O)[C@@H](CCCNC(=N)N)NC(=O)[C@H](CCCNC(=N)N)NC(=O)[C@@H](CCCNC(=N)N)NC1=O | fetal bovine serum proteins | binding, fluorescence polarization |  | 1 h | 29 ± 3 µM
CC[C@H](C)[C@H](NC(=O)[C@H](CCCCN)NC(=O)[C@H](CCCCN)NC(=O)[C@@H](NC(=O)[C@H](CCC(=O)O)NC(=O)[C@H](CCC(=O)O)NC(=O)[C@H](CCC(=O)O)NC(=O)[C@H](CO)NC(=O)[C@H](CC(C)C)NC(=O)[C@H](CC(=O)O)NC(=O)[C@H](CC(C)C)NC(=O)CNC(=O)[C@H](CCCNC(=N)N)NC(=O)[C@H](CC(C)C)NC(=O)[C@H](CO)NC(=O)CNC(=O)CNC(=O)CNC(=O)CCCC[C@@H]1SC[C@@H]2NC(=O)N[C@@H]21)C(C)C)C(=O)N[C@@H](CC(C)C)C(=O)N[C@@H](CC(=O)O)C(=O)N[C@@H](CCC(=O)O)C(=O)N[C@H](C(=O)N[C@H](C(=O)N[C@@H](CCCCN)C(=O)N[C@@H](C)C(=O)O)C(C)C)[C@@H](C)CC | Fab B11 antibody (human) | binding, biolayer interferometry |  | together with: biotinylated peptide on tips | 0.106 ± 0.004 µM
CNCCCC[C@H](NC(=O)CNC(=O)CNC(=O)[C@H](C)NC(=O)[C@@H](N)Cc1ccc(O)cc1)C(=O)N[C@@H](C)C(=O)NCC(=O)N[C@@H](CCCCNC(C)=O)C(=O)N[C@@H](CC(=O)O)C(=O)N[C@@H](CO)C(=O)NCC(=O)N[C@@H](CCCCN)C(=O)N[C@@H](C)C(=O)N[C@@H](CCCCNC(C)=O)C(=O)N[C@@H](C)C(=O)N[C@@H](CCCCN)C(=O)N[C@@H](C)C(=O)N[C@H](C(=O)N[C@@H](CO)C(=O)N[C@@H](CCCNC(=N)N)C(N)=O)C(C)C | BPTF bromodomain | bromodomain binding, PrOF NMR titration |  | pH 7.4, 5-fluorotryptophan-labelled bromodomain, 40-50 µM | 340 µM
C[n+]1cc(NC(=O)c2ccc3ccc4ccc(C(=O)Nc5cc6ccccc6[n+](C)c5)nc4c3n2)cc2ccccc21 | G-quadruplex DNA myc22 | fluorimetric titration |  | pH 7.2, 100 mM KCl, together with: Cy5-labelled DNA 2 nM | 0.0087 ± 0.004 µM
O=C(O)Cc1ccc(O)cc1 | p-hydroxyphenylacetate 3-hydroxylase, reductase component (C1-hpah, Acinetobacter baumannii, UniProt Q6Q271) | ITC |  | pH 7, together with: 1 mM FMN | 10.2 µM
CN1CCC(NC(=O)c2ccc(-c3cc(-c4ccc(F)cc4)c4oc5c(c4c3)CCN(C(=O)/C=C/c3ccc(N)nc3)C5)nn2)C(F)(F)C1 (stereo not drawn) | PAK4 (Homo sapiens, UniProt O96013) | surface plasmon resonance |  |  | 8.2 µM
[N-]=[N+]=NCCOC1OC(CO)C(OC2OC(COC3(C(=O)O)CC(O)C(NC(=O)OCc4cn(C(c5ccccc5)c5ccccc5)nn4)C(C(O)C(O)CO)O3)C(O)C(O)C2O)C(O)C1O (stereo not drawn) | Sialic acid-binding Ig-like lectin 9, V-set domain (SIGLEC9, Homo sapiens, UniProt Q9Y336, C36S) |  | Siglec-9 domain 1 | pH 7.4, 293 K | 34 ± 5 µM
CC(=O)NCCCC[C@H](NC(=O)CNC(=O)[C@H](CO)NC(=O)[C@H](CC(=O)O)NC(=O)[C@H](CCCCN)NC(=O)CNC(=O)[C@H](C)NC(=O)[C@H](CCCCN)NC(=O)CNC(=O)CNC(=O)[C@H](C)NC(=O)[C@@H](N)Cc1ccc(O)cc1)C(=O)N[C@@H](C)C(=O)N[C@@H](CCCCNC(C)=O)C(=O)N[C@@H](C)C(=O)N[C@@H](CCCCN)C(=O)N[C@@H](C)C(=O)N[C@H](C(=O)N[C@@H](CO)C(=O)N[C@@H](CCCNC(=N)N)C(N)=O)C(C)C | BPTF bromodomain | bromodomain binding, PrOF NMR titration |  | pH 7.4, 5-fluorotryptophan-labelled bromodomain, 40-50 µM | 790 µM
Cc1cc(N2CC[C@](C#N)(C3(C)CC3)C2=O)cc(C(=O)NCc2cc(F)cc(-c3cnn(C)c3)c2)n1 | Proline--tRNA ligase | binding, microscale thermophoresis |  |  | 0.374 µM and 0.413 µM

Some of these lines once more:
SMILES | target | test | system | conditions | Kd
[N-]=[N+]=NCCOC1OC(CO)C(OC2OC(COC3(C(=O)O)CC(O)C(NC(=O)OCc4cn(C(c5ccccc5)c5ccccc5)nn4)C(C(O)C(O)CO)O3)C(O)C(O)C2O)C(O)C1O (stereo not drawn) | Sialic acid-binding Ig-like lectin 9, V-set domain (SIGLEC9, Homo sapiens, UniProt Q9Y336, C36S) |  | Siglec-9 domain 1 | pH 7.4, 293 K | 34 ± 5 µM
CCc1cc2c3c(c1CC)O[C@H](CO)[C@H](O)[C@@H]3OC2 | LGALS9 N-terminal CRD | binding, competitive fluorescence polarization |  | 20 °C, galectin-9 N-terminal domain 1.0 µM | > 6000 µM
